# Measurements of several laboratories.
# Each numbered part is a random draw from the data of one study; scales do not carry over between parts.
# Chain of UniProt P60604 (whole entry, looked up): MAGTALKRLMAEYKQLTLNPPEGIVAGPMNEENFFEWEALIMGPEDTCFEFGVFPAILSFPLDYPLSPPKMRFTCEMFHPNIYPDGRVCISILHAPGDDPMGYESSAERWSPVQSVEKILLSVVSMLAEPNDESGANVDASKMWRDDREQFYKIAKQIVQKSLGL
# Chain of UniProt Q8WVN8 (whole entry, looked up): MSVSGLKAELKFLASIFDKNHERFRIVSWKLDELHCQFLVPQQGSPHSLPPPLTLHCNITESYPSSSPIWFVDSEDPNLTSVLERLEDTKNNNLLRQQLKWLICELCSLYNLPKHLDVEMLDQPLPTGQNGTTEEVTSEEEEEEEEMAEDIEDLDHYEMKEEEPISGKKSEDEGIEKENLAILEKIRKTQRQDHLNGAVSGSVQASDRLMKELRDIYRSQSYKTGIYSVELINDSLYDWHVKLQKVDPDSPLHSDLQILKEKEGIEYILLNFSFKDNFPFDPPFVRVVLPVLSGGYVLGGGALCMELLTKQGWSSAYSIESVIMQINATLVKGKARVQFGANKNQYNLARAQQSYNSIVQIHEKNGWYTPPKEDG
# Chain of UniProt O14933 (whole entry, looked up): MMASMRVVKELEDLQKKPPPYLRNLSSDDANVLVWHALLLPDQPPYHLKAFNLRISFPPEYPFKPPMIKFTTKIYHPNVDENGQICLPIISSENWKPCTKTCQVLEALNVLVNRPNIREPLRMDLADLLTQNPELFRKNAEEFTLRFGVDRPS
# Chain of UniProt Q96LR5 (whole entry, looked up): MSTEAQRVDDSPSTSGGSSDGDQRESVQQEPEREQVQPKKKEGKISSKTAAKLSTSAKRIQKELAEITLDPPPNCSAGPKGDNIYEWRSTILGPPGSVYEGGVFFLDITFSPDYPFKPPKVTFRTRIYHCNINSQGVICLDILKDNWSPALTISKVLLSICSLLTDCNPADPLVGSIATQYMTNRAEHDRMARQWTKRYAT
# Chain of UniProt Q15819 (whole entry, looked up): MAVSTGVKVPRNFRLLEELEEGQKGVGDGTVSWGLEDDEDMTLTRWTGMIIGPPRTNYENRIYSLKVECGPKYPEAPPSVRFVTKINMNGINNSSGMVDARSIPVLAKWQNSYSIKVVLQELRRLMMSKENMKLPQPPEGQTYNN
# Chain of UniProt Q5VVX9 (whole entry, looked up): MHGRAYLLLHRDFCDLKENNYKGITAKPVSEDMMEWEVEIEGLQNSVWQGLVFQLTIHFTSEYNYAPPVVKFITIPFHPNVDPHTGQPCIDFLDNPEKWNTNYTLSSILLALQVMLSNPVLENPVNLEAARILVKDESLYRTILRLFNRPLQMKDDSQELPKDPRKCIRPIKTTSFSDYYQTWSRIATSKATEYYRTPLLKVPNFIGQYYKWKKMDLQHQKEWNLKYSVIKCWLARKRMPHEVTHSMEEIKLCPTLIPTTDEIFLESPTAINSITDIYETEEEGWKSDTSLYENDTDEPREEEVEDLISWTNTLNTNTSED

# Block 1
# Target: Hepatocyte nuclear factor 3-alpha (Foxa1, Mus musculus, UniProt P35582, residues 1-468, full length assumed)
# Method: EMSA with sequencing
# Form: double-stranded DNA, one strand shown
# Matrix: in vitro
# Concentration: 10 and 20 nM
# Setting: whole designed probe, mean of two concentrations, ends assumed
# Relative to: negative control set to 0
# Direction: higher = stronger binding
# All sequences stand within: GTGAGCGGTGCCCATTGATGGGGAAC … TTTCACTGGGATCGTGGGGAC
# Residues (chain): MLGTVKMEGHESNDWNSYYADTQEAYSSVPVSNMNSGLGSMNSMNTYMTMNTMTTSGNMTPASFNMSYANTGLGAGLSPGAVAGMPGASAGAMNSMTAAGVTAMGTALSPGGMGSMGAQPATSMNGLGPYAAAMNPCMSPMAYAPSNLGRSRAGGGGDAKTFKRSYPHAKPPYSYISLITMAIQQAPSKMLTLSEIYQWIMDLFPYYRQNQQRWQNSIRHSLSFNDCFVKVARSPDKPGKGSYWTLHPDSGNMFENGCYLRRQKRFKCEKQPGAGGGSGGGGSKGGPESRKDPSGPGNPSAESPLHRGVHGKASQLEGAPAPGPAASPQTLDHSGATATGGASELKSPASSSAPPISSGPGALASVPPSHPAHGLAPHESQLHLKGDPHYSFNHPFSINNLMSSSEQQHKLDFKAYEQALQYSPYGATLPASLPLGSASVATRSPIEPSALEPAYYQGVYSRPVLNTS
Strand,normalised bound fraction [ratio]
GGAGTTATCAGGAGACATTTTATGGTGAACATGGATATAAGTTTGTTCCTGAAGGATGCAGGGAATTCAGTAACACAGAAAAACAGTTCAAAGTAAACATGAACAAAACTCCAGAGATGGGTACACAGATGTGTAAAGATGGAGTTAGGTGGGCTACATGTAGATGATGAAGCCCACATATGTCACCAAAGCA,0.373
ATCTTCCCCCTTTTTTTTTCCCCACCAGCTCACCTTCCCGGGTTATTTGCAGATAGGAAAATAAATAAAGCCGGCATTCGTTAACCCTCTTCTGGCGCAAACTGCTGTTTGCTCTGGATGAATCATGGTCCTTTGGCGACGCCAGGCTCCGGGAGAGCAAAGCACCGTGTCAGGGCCATGATCCGGGGTGGCC,0.321
CCCTCATCCTGGGTGTCGGGGTGGGAGGTGTTCTCATCATGAATGGGAGGCGTACCCAGATCCAGCTCTGCCTTTTTTGTGACTCACCAGAGTGTAAACAAATGGCTGTGTGTCACACCATAATCGACATAGCAAGATATGATACATGCCAGGAGAGAAAAAGAAAGTGCTGATGGAAAAATAATCTCATTAG,0.463
GCCTGGAAGAAAGGGGCTGTTTTCCTTTTCACTATTATTATTTTAAACTTTGATGGGCTGCTGACGTCAGCAAATATGCTTGACGCCTGTAAAGCAATTTAGCCACATCACAAGCAGAAAGCCTGTGGGATTTTCTGGTGCCCTATTTCTAGAACCTTCCCTGTTCTGACCATTTGAAGGTGCTTATTTAGTC,0.0367
TGACGATGTCTCCATTAGCTGTGATCAGCAAGAAGGCTGCATGAAAGAGTTGCCAGGCCCACAGTAAATTGCTTTATCGGGGAATAACTTTATGTTTACATAGAGGTTTTGGGGTTATCTATTACTGCATAGAATTTAGCCAAGTTTAACTAATAATATGTTTAATTCTCATCTTATAAGGCAAAGCAGATAT,0.46

# Block 2
# Target: RING finger protein unkempt homolog, zinc fingers 1-6, GST-SBP tag (UNK, Homo sapiens, UniProt Q9C0B0, residues 30-357)
# Method: RNA Bind-n-Seq
# Form: RNA
# Matrix: in vitro
# Concentration: not given
# Setting: RNA with constant flanks, ends assumed
# Relative to: input RNA pool
# Direction: higher = stronger binding
# All sequences stand within: GGGAGUUCUACAGUCCGACGAUC … CAACAGAGGAUUGAGCAUCA
# Target sequence (chain): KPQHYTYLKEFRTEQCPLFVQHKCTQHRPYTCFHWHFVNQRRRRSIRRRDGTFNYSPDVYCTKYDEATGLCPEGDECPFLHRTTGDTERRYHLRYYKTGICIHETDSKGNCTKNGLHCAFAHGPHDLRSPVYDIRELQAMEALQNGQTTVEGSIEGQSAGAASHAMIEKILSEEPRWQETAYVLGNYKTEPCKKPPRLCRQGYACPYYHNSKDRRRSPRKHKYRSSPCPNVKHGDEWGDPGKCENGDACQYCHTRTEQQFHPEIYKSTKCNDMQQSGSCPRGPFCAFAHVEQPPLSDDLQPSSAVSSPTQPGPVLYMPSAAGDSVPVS
Strand,bound/input enrichment [ratio]
GAACUUCAAGCUUUACAAAUAUUACAGAAGAAAAAACAUAAAAAUUCUCAGUUAGAUAAAAACCGUGAAAUUUGCCAGGAAGUUCAAGCUGUAUGUGAUGCCCUCGGGGUCCCCAAGUCU,0.421
ACACAAAUGUACCCUUACUCCAGUCUGUCCCUCACCUCCAUUGUCUAAGGUAUUGGACUCCGAUGCUUAUGUGUAAUAUGUUGAACCUGUCAGUUGCUGUCUUUUUCCUUCUUCGCAUUU,0.205
CAGAUUUAUACUCCUGACGUGUCUCAUUCACAGCUAAAUAAUAGGCCAUAGGACUUUUGGCCGGUUUAAACUUUUAAUUCUGUAUUUCAUGAUUAUAAGUCUUGCUAGAAUUUUUUCUAA,0.445
AAUAGAGGAUUAUAUUCAAUUGAAGUGCUGGAGCUCUUCUGAUAUUAUCAAUUCUCCUUCACCGACAUUUUAUAAAGCUCUUUUAUGUGAACUCUUGCUUCAUCCAGGCAAGAACGGUGU,1.2
ACUUGACUUCAGGCAGCAGAUUGUCUAGAAGCCUAAGGACAGCAAUUUCUCUGACAAGACAAAGCCGAUAUUUUAUACCAGGGGUUGGCAAACUACUGCCCACGGGCCGAAUUUGGCCCA,0.259
GGGUGUUUGUGACCACUGCUUUCAGAGAUUCUUACCAUGUAUUCUGUUUUACAAUGUUUUCACCGACUGUUAUGCCAGAAGUUUCCGAUGAUCAAUGUAAUAACCUGUUUUAACUGCCUA,0.152
UGGUUUAAAGCCCUGAGGAUAGUAGUCACUUUAUUGGCCACUUUUUCAUUUAUAAUCACUUCCGCCGUUAAAAGUAGUUUUCCAGAAAAAGGACAUAAGAGACCUGGUCAAGUAUAAAAA,0.707
ACGACAUUGCGACAGCGCAGAAAGCCAGUGUUCCACCUGUCCCACGAGGAGCGUGUCCAACACCGGAACAUUAAAGACCUUAAGCUGGCCUUCAGCGAGUUCUACCUCAGUCUCAUCCUG,0.0876

# Block 3
# Molecule: B1 (TRIM24 RING domain)
# Method: yeast two-hybrid
# Matrix: yeast
# Setting: mostly zero background
# Relative to: not given
# Direction: higher = stronger interaction
# B1: TRIM24 RING domain (UniProt O15164); chain EAARLNLLDTCAVCHQNIQSRAPKLLPCLHSFCQRCLPAPQRYLMLPAPMLGSAETPPPVPAPGSPVSGSSPFATQVGVIRCPVCSQECAERHII
target,lacZ reporter activity
UBE2G2 UBC core domain (UniProt P60604),0
UBE2L6 UBC core domain (UniProt O14933),0
UBE2V2 UBC core domain (UniProt Q15819),0
UBE2Q2 UBC core domain (UniProt Q8WVN8),0
UBE2E2 UBC core domain (UniProt Q96LR5),0
UBE2U UBC core domain (UniProt Q5VVX9),16900

# Mixed results
Molecule,target,test,system,conditions,quantity,value
KPKALSEAF,"HLA class I histocompatibility antigen, A alpha chain, allele A*80:01 (Homo sapiens, UniProt P04439)",peptide-MHC binding,peptide,concentration not given,binding,inactive

# A few entries again (block 3):
target,lacZ reporter activity
UBE2U UBC core domain (UniProt Q5VVX9),16900
